Published values of several laboratories.
Compare with care: the assays were run in different laboratories. Several values in a cell are separate wells, animals, samples, runs or records.
DPP9: Dipeptidyl peptidase 9 (DPP9, Homo sapiens, UniProt Q86TI2)
Chain of UniProt P61073 (whole entry, looked up): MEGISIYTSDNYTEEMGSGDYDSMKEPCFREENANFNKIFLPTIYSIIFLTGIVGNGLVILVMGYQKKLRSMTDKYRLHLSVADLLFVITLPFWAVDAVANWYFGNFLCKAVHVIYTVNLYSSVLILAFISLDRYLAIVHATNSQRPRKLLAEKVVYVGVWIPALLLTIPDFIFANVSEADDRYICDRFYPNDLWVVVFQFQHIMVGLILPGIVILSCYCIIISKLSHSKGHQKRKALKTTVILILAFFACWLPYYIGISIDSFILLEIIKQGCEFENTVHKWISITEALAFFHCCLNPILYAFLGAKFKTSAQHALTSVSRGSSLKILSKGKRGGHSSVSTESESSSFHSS
Chain of UniProt Q86TI2 (whole entry, looked up): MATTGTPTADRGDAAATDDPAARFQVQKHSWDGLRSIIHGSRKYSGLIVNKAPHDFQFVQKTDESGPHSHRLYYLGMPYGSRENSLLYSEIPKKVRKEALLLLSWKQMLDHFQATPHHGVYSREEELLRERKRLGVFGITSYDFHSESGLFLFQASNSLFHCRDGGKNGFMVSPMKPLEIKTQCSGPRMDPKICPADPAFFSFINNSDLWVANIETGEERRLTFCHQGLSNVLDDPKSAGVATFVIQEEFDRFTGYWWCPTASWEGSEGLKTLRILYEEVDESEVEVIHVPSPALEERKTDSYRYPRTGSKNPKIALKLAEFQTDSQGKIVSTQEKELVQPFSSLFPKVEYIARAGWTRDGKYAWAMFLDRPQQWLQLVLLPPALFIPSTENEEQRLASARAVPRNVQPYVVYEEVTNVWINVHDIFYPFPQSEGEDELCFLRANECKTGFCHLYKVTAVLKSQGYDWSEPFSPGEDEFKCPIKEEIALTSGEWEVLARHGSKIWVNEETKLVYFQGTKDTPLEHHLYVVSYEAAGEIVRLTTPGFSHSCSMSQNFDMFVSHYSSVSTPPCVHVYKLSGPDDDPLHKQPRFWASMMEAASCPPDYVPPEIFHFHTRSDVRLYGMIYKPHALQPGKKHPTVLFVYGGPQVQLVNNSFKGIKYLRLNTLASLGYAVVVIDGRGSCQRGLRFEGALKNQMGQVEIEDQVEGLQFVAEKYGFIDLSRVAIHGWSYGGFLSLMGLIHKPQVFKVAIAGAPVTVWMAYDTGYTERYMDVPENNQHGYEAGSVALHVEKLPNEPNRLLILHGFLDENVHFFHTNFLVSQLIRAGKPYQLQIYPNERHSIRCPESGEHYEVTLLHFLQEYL
Chain of UniProt Q9HB29 (whole entry, looked up): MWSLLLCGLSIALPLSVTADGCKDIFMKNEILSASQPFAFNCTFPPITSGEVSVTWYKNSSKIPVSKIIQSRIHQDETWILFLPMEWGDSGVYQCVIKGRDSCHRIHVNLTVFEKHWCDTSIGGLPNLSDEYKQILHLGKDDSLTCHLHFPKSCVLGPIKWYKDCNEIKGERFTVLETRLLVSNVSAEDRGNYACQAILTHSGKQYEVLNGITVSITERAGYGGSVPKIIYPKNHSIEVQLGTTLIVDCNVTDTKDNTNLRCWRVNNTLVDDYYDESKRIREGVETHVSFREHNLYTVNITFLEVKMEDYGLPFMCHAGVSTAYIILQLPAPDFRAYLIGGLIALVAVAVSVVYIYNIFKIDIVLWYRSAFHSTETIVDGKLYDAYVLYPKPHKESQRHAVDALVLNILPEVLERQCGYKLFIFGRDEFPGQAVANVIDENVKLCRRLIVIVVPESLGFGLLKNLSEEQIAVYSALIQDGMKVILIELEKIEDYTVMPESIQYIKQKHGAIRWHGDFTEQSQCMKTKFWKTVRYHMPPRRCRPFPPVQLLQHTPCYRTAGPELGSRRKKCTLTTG
Chain of UniProt P54132 (whole entry, looked up): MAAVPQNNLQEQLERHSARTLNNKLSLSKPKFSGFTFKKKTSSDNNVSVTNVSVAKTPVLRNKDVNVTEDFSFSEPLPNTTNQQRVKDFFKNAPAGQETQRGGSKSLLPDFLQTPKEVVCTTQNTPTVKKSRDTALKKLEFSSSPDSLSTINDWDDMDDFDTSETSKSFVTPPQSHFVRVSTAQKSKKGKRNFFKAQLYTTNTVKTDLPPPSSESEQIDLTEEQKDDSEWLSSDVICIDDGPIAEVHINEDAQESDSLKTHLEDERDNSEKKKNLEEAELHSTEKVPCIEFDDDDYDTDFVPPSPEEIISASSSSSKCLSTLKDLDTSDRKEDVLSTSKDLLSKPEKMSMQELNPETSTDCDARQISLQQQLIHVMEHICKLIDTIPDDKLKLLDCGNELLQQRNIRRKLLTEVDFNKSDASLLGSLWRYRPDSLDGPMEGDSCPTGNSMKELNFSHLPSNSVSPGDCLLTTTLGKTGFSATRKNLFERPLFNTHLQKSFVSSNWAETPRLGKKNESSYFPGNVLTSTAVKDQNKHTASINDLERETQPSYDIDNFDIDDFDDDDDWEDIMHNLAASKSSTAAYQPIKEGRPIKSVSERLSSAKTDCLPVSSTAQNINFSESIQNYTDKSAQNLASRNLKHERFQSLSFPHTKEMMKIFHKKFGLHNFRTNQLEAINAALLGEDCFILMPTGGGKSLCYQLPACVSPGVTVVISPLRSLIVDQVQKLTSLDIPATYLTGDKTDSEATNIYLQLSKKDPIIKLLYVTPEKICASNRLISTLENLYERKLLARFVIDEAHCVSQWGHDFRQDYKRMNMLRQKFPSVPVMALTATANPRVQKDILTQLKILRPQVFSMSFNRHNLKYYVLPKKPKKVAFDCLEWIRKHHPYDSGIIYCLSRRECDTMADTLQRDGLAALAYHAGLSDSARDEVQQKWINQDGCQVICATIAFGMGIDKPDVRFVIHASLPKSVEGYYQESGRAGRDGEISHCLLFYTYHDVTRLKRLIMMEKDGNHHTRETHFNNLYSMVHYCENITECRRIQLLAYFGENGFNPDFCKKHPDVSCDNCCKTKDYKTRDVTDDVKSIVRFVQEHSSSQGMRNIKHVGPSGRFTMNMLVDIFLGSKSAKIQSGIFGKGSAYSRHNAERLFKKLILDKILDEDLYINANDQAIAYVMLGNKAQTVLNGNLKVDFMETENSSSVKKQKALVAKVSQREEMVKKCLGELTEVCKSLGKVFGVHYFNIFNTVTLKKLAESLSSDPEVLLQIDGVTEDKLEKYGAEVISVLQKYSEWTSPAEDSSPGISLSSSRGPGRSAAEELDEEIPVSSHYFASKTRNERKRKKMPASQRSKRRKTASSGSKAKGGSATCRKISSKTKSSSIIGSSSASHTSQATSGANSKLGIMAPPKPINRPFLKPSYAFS
Chain of UniProt Q16539 (whole entry, looked up): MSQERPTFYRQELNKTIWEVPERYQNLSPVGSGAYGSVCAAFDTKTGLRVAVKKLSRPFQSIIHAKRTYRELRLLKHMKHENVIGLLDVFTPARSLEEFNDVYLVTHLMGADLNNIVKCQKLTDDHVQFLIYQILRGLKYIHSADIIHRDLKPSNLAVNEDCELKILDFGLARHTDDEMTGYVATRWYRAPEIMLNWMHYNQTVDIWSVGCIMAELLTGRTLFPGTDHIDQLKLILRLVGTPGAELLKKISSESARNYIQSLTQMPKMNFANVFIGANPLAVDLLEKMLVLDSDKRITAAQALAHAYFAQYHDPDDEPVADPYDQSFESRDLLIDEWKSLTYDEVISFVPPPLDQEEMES

COc1ccccc1-c1ccncc1C(=O)Nc1nnc(OCc2ccc(Cl)cc2)s1 — remaining activity (RecQ-like DNA helicase BLM, residues 636–1298 (BLM, Homo sapiens, UniProt P54132); ATPase activity, ADP-Glo; 0.06 µM, 1 h): 94%
N#Cc1cnc2sc(C(=O)O)cc2c1N1CCc2[nH]nc(C(=O)N[C@@H](CC(=O)NCCOCCN3CCOCC3)c3cccc(Br)c3)c2C1 — remaining activity (Interleukin-1 receptor type 1 (IL1R1, Homo sapiens, UniProt P14778); IL-8 release, antagonist; A-431; 160 µM, 18 h, with: IL-1β 5 ng/mL; reference: untreated): 85.3%
COc1ccc(NC(=O)Nc2ccc3c(c2)C(=O)N(C(C)CO)CC(C)C(CN(C)Cc2ccc4c(c2)OCO4)O3)cc1 (stereo not drawn) — remaining activity (Angiopoietin-1 receptor (TEK, Homo sapiens, UniProt Q02763, R849W); kinase activity; 0.03 µM; reference: control): 104%
CCC1(CC)C(=O)N(c2cccc(CN3CCN(Cc4cccc5cccnc45)CC3)c2)C1=O — remaining activity (DPP9; enzyme activity, inhibitor; 5 µM): 39%
CC(C)[C@@H]1NC(=O)[C@H](Cc2ccccc2)NC(=O)CSC[C@@H](C(N)=O)NC(=O)[C@H](CCC(=O)O)NC(=O)[C@H](CO)NC(=O)[C@H](Cc2c[nH]c3cccc(Cl)c23)NC(=O)[C@H](C2CCCCC2)NC(=O)[C@H](C(C)C)NC(=O)[C@H](Cc2ccc(O)cc2)NC(=O)[C@H](CC(=O)O)NC(=O)[C@H](Cc2c[nH]c3ccccc23)NC(=O)[C@H](Cc2ccc(N)nc2)NC(=O)[C@H](Cc2c[nH]c3ccc(Cl)cc23)NC(=O)[C@H](CCC(=O)O)NC1=O — remaining activity (Interleukin-1 receptor-like 2 (IL1RL2, Homo sapiens, UniProt Q9HB29); reporter gene (SEAP), inhibitor, HEK-Blue IL-36R reporter; HEK-Blue IL-36R cells; 0.0017 µM, 6 h, with: IL-36γ 0.3 ng/mL): 105%
C=CC(=O)N1CCCC(n2c(=O)c3ncccc3n(Cc3ccc(Oc4ccccc4)cc3)c2=O)C1 (stereo not drawn) — remaining activity (Receptor-type tyrosine-protein kinase FLT3 (FLT3, Homo sapiens, UniProt P36888, D835V); kinase activity; 1 µM): 82%
CN(Cc1cc(C2CC2)on1)C(=O)c1cccc(-c2ccc3c(c2)CCO3)c1 — remaining activity (Acetyl-CoA synthetase (Cryptococcus neoformans, UniProt J9VFT1); enzyme activity, inhibitor, coupled pyrophosphate; 7.81 µM): 38.5% and 56.6%
CCC1(CC)C(=O)N(c2cccc(CN3CCN(Cc4ccc5ccc6cccc7ccc4c5c67)CC3)c2)C1=O — remaining activity (DPP9; enzyme activity, inhibitor; 5 µM): > 90%
COC(=O)[C@@]1(C)C=C(C(=O)Nc2cccc(C(=O)Nc3ccc(Nc4nccc(-c5cccnc5)n4)c(C)c3)c2)C(=O)CC1 — remaining activity (Mitogen-activated protein kinase 14 (MAPK14, Homo sapiens, UniProt Q16539); kinase activity, inhibitor; 133.3 µM, unit not given; reference: no inhibitor): 0.218
Cc1cnc2nc1Nc1cccc(c1)COC/C=C/COCc1cc(ccc1OCCN1CCOCC1)N2 — remaining activity (Epidermal growth factor receptor (EGFR, Homo sapiens, UniProt P00533, del746-750); concentration not given; reference: untreated control): 77%
CCS(=O)(=O)c1ncc(N(Cc2ccco2)Cc2ccco2)c(C(=O)Nc2ccccc2C)n1 — remaining activity (C-X-C chemokine receptor type 4 (CXCR4, Homo sapiens, UniProt P61073); arrestin recruitment, antagonist, DiscoverX arrestin; 30 µM; reference: untreated): -0.89% and -0.69%
O=C=[N][Ru-4]123([n]4c5ccc(O)cc5c5c6c(c7cc(F)c[n+]1c7c54)C(=O)NC6=O)[S+]1CC[S+]2CC[S+]3CC1 (stereo not drawn) — remaining activity (Rho-associated protein kinase 2 (Rock2, Rattus norvegicus, UniProt Q62868); enzyme activity; 100 nM, rat enzyme, with: 10 µM ATP; reference: untreated): 107%

Repeated from above:
CCS(=O)(=O)c1ncc(N(Cc2ccco2)Cc2ccco2)c(C(=O)Nc2ccccc2C)n1 — remaining activity (C-X-C chemokine receptor type 4 (CXCR4, Homo sapiens, UniProt P61073); arrestin recruitment, antagonist, DiscoverX arrestin; 30 µM; reference: untreated): -0.89% and -0.69%
